Results gathered from unrelated publications.
Every numbered part comes from another study and shows a few of its results, in no order.

Series 1 — technique: protein-binding microarray; form: double-stranded DNA, one strand shown; medium: in vitro; concentration: 250 nM; setting: 60-bp whole probe; with: salmon DNA 0.4 mg/ml; baseline: random background probes; reading: higher = stronger binding; measurement: log fluorescence; all sequences stand within: GCCTAGCAC … GTCTTGATTCGCTTGACGCTGCTG
Target: Interferon regulatory factor 7, full length, phosphomimetic (IRF7, Homo sapiens, UniProt Q92985, residues 1-503, S101K/S471D/S472D/S475D/S476D/S477D/S483D/S484D/S487D)
Residues (chain): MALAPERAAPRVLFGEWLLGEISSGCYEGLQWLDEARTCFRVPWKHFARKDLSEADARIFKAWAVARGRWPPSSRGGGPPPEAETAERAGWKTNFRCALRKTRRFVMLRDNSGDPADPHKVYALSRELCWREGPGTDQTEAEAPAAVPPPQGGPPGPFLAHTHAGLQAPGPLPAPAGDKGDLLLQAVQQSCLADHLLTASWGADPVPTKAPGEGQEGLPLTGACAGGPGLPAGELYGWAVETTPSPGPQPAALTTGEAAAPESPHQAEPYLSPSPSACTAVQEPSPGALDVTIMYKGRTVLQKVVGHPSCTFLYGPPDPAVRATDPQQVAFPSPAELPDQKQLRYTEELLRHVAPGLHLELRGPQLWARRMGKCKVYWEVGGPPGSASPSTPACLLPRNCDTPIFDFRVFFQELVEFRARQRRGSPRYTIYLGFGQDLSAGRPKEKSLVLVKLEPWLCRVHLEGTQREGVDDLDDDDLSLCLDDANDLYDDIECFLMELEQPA
GACGATAACAGTTTCGAGACGTGCTAG: 4.01 z-score
AAACAAGTTTCACGTCTTATAGTGCTA: 1.09 z-score
TTAGGACCGGACTATCGGTTAGTGCTA: 0.0954 z-score
GACGGACTGGTGACTGGGGACGTGCTA: -0.686 z-score
TCACCTAACATGCTTCGAACTGTGCTA: -0.293 z-score
TTGGGACTGGGTCTCGGTTAGTGCTAG: 0.614 z-score
TTAGATATCGGGATTCGATTAGTGCTA: 1.19 z-score
CCCCTCTTCTGGATCTCAGAGTGCTAG: 0.212 z-score
TTAGGTTTCGACTATCGGTTCGTGCTA: 5.07 z-score
GACGAACTGGGGTTTCGAGAAGTGCTA: 0.369 z-score
GACGCTATCGGGTTTCGGGACGTGCTA: 1.48 z-score
GGGCCCATCATTCCGACCCTGTGCTAG: 0.864 z-score
TACGATCTCAGTATCGAGACGTGCTAG: 0.284 z-score
TCATCTTTTATGCTCTTACTGTGCTAG: 0.543 z-score
GACGGTATCGGGTATCGCGACGTGCTA: 0.176 z-score
GACGAACTGAGTCTCCAGACGTGCTAG: -0.182 z-score

Series 2 — technique: RNA Bind-n-Seq; form: RNA; medium: in vitro; concentration: 365 nM; baseline: no-protein control; reading: higher = stronger binding; measurement: RBNS enrichment (R)
Target: RNA binding protein fox-1 homolog 2, RRM domain, GST-SBP tag (RBFOX2, Homo sapiens, UniProt O43251-10, residues 100-194)
Setting: natural RNA segment, single round, ends assumed
All sequences stand within: GGGAGUUCUACAGUCCGACGAUC … UGGAAUUCUCGGGUGCCAA
Construct (chain): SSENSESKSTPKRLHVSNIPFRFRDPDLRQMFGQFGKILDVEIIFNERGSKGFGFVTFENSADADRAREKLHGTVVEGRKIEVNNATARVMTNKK
CUGCCUUCCUUGCCCUCACUGUUCUGGGGUGGGGGACAUCCCCGGGGAUCCCUGAGAAGAGUGUCCUUUAGAAAGCUAGGCAGAUGUGGAUUGCUGCUAGGAGAGUGACC: 0.612
GGGAAGUGACAUAAAGUGAGGUCGCCCUUGCUAAGUCCUGCUGUCCUCUCUAGAGCCUUCCUCAGAGCUGUGCAAGCAUGGGAGCCUCUCCUUGCUCCUCCCAGUCCUGC: 0.656
UUUUUUUCUUUUUUAGAAAACAGGGAGUUGAAGUCCAACCUAUUUAAAAACCCCACCAUUUGGAGAAUUACAAGGGUUUUGUCCUGAAUUGUAGUGUUGGCAAGCCCAAG: 0.466
UGUUUCAUGACCGCUUGUUUUUCUCCUUUUGGUGUAAUGUUUUACAAAUCCUUUGGCCUGAGAACUAAUAUGUUAAUUGCCUUAAAUAAAUUAAUAGAAAUCUAGUCCGU: 0.452
AGCUGUCCCAGCCCCUCCCAUUUCUUGGGCAGGGCUCUUUUCCUGUUGUGUCUUCCCCCAGGGCCUGUCCUGUACCGAGCUCUGUCUGUUCCAGCCUUCAUCCUUCCUGG: 0.457
AAGCAGGAAAACCAAUCGUCUUCUUGACAGGGUGGCAUUUGGCCUUGAACAAAAUCAGGUCCCCUGGGGUGGAAGUCACAGCCAAGCGCCUUUUUAAGACUUGAGUGGUG: 0.303
CCCCAGUAUUGAUCCCCCACCCUUUUUUGAGACAGGGCAUCCCAGCUGGCGACAACCCUCCUUUCUGCCUUUGACACUCAUGUGCUGGGACUACAGGCACACACCAGUAC: 0.876
UACAAGUAGGGGUUGUGGGUGACCAGUUGCACUUGGCCUCUGGAUUGUGGGAAUUAAGGAAGUGACUCAUCCUCUUGAAGAUGCUGAAACAGGAGAGAAAGGGGAUGUAU: 0.63

Series 3 — technique: RNA Bind-n-Seq; form: RNA; medium: in vitro; concentration: not given; baseline: input RNA pool; reading: higher = stronger binding; measurement: bound/input enrichment
Target: RING finger protein unkempt homolog, zinc fingers 1-6, GST-SBP tag (UNK, Homo sapiens, UniProt Q9C0B0, residues 30-357)
Chain of UniProt Q9C0B0 (30-357, looked up): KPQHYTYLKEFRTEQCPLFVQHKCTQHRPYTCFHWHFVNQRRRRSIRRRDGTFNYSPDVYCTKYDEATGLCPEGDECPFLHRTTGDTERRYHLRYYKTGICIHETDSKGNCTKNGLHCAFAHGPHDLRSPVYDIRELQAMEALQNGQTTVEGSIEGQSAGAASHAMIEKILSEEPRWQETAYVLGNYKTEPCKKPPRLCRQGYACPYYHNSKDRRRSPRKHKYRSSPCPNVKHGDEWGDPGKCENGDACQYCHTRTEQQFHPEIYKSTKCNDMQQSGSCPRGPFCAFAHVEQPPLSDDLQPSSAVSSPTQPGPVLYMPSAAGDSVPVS
Setting: RNA with constant flanks, human and mouse sites, ends assumed
All sequences stand within: GGGAGUUCUACAGUCCGACGAUC … CAACAGAGGAUUGAGCAUCA
UGCUUGAUUUUGGCUUGGCUCGACAAUUUACUAAUUCCUGUGGUGACGUCAGACCACCUCGUGCUGUGGCAGGCUUUCGAGGGACAGUUCGUUAUGCAUCAAUCAAUGCUCAUCGGAACA: 0.163 ratio
GACCGUGCCCUAGAAUUUGCCCCUGCCUGCCAUCGAUUCAAAAUUCUCAAAGCAGAAUGUUUAGCAAUGCUUGGUCGAUACCCAGAAGCACAGUUUGUGGCCAGUGACAUUUUACGAAUG: 0.327 ratio
CAAGAAGUUCAAGGAGAUGGUCCAUUUCUGGAUGGAAUUAAUGUCACAAUAAGAAGAAAUUACAUUUAUGAAGAUGCUUAUGACAAACUUUCUCCAGAAAAUGAGCCUGAUUUGAAAAAG: 0.275 ratio
UUUGCAGUUUAUGACGGUCAUGCUGGAUCCCGAGUGGCAAAUUACUGUUCAACACAUCUAUUAGAACACAUCACCACCAAUGAAGACUUCAGGGCAGCUGACAAAUCAGGCUCUGCUCUC: 0.238 ratio
UUGCUCUCUAUUUGUUCCCUUUUGACAGAUUGCAACCCUGCGGAUCCUCUGGUCGGAAGCAUAGCCACUCAGUAUUUGACCAACAGAGCAGAACAUGACAGGAUAGCCAGACAGUGGACC: 0.318 ratio
CUGCCCCUGCUCCUGCGUAACGUGCGACUGGCCCUGCUGCCCUCAGACUGCCUGAAGAAUGCCGUAUCUGGAGAGGCCCUCCUCAUGGCGGACGAGUGCACCAAGCUCAUCUUAGACGAG: 0.177 ratio
UUAGUAGAUAGUAUGGGAAGAACGGAAGCUCCUGUUGUCUCUUACUUUUGUUCUCUAACCUGUUUUGUAAAGUCCUCUGAUAUGUUGAACUAAUUAAUGUAAUAUCAGAAAGGUUUCUAG: 0.522 ratio
AAUGUUAAAGAACAAUUCAUCAAAAUGCUUAAAGAAAGCCAGAUGUUGACAAAUCUGAAAAGGAAGAAUGCUAAGAUGAUUUCAGAUAUCGAAAAGAAAAGGCAGCGUAUGAUUGAAGUC: 0.14 ratio

Series 4 — technique: RNAcompete; form: RNA; medium: in vitro; concentration: 20 nM; setting: 7-mer, probes averaged, single round; baseline: mean of 7-mers; reading: higher = stronger binding; measurement: 7-mer Z-score
Target: PABPC1L2, full length, GST fusion (mouse, UniProt A0ABA7IW68)
Residues (chain): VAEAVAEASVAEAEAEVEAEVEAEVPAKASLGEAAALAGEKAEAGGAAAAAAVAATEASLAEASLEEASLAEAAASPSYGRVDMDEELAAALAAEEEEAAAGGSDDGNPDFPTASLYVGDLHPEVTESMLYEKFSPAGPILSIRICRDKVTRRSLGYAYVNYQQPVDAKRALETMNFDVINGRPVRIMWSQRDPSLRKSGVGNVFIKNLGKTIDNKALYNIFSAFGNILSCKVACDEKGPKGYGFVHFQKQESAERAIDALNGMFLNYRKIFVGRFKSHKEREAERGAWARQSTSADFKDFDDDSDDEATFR
GGUUACG: -0.104
UAUUCGG: -0.197
GCACCGU: -0.153
GACACGU: -0.213
GGGUAGC: 0.1
UGGUAGC: -0.155
AGCGACG: 0.149
UUGCGUC: -0.385
AGUCAUG: -0.2
UAGCCGA: -0.079
CCGUCAC: -0.229
CUAAUCC: -0.362
GAUCGGU: -0.179
CACAGCC: -0.267
GAUAACU: -0.137
GACGUAC: -0.144
CAGAGCC: -0.0953
CUUGGCU: -0.121
UAAAUUG: 1.46
GCGCGCA: -0.295

Some of these lines once more (series 2):
UUUUUUUCUUUUUUAGAAAACAGGGAGUUGAAGUCCAACCUAUUUAAAAACCCCACCAUUUGGAGAAUUACAAGGGUUUUGUCCUGAAUUGUAGUGUUGGCAAGCCCAAG: 0.466
UACAAGUAGGGGUUGUGGGUGACCAGUUGCACUUGGCCUCUGGAUUGUGGGAAUUAAGGAAGUGACUCAUCCUCUUGAAGAUGCUGAAACAGGAGAGAAAGGGGAUGUAU: 0.63
UGUUUCAUGACCGCUUGUUUUUCUCCUUUUGGUGUAAUGUUUUACAAAUCCUUUGGCCUGAGAACUAAUAUGUUAAUUGCCUUAAAUAAAUUAAUAGAAAUCUAGUCCGU: 0.452
AAGCAGGAAAACCAAUCGUCUUCUUGACAGGGUGGCAUUUGGCCUUGAACAAAAUCAGGUCCCCUGGGGUGGAAGUCACAGCCAAGCGCCUUUUUAAGACUUGAGUGGUG: 0.303
AGCUGUCCCAGCCCCUCCCAUUUCUUGGGCAGGGCUCUUUUCCUGUUGUGUCUUCCCCCAGGGCCUGUCCUGUACCGAGCUCUGUCUGUUCCAGCCUUCAUCCUUCCUGG: 0.457
CCCCAGUAUUGAUCCCCCACCCUUUUUUGAGACAGGGCAUCCCAGCUGGCGACAACCCUCCUUUCUGCCUUUGACACUCAUGUGCUGGGACUACAGGCACACACCAGUAC: 0.876
CUGCCUUCCUUGCCCUCACUGUUCUGGGGUGGGGGACAUCCCCGGGGAUCCCUGAGAAGAGUGUCCUUUAGAAAGCUAGGCAGAUGUGGAUUGCUGCUAGGAGAGUGACC: 0.612
